Assay results of several laboratories.
“And” joins repeats or separate records; there may be more than shown. ± gives the spread as reported.

`Cc1cc([C@H]2C[C@H]3[C@@H](CF)SC(N)=N[C@@]3(c3ccc(F)cc3F)CO2)on1` gave a brain concentration of 152 nM (male 129/SVE wild-type mouse, brain; subcutaneous, 30 mg/kg, 5 h).
`COc1cccc(-c2n[nH]c(SCc3ccccn3)n2)c1OC` gave a plasma concentration of 8220 ng/mL (Sprague-Dawley rats, both sexes; oral dietary, 100 mg/kg/day, day 90, 6 h).
`Cl.NCCCCCCN1C(=O)/C(=C2/C(=O)N(Cc3ccc(F)cc3)c3ccccc32)SC1=S` has a concentration decrease of ~42% (HPLC; 50 mM phosphate buffer; 10 µM, 48 h, pH 7).
`CCn1c(=O)c(-c2cc(NC(=O)Nc3ccccc3)c(F)cc2Br)cc2cnc(NC)cc21` — result for “short-term stability accuracy”: 9.79% (human plasma; 4000 ng/mL, 24 h, 24 °C, high QC).
With `COc1ccc2c(c1)CN(C(=O)CCN1CCC(Cc3ccccc3)CC1)CC[S@@+]2[O-]` the fu was 0.514 (dog plasma; 10000 ng/mL).
`O=c1[nH]c(=O)n([C@@H]2O[C@H](CO)[C@@H](O)[C@@H]2F)cc1CCCC[18F]` gave a biodistribution of 1.14 ± 0.11 %ID/g (nude mice, RG2 tumour, bone; intravenous, dose not given, 2 h).
`COc1ccc2[nH]c([S+]([O-])Cc3ncc(C)c(OC)c3C)nc2c1` (stereo not drawn) — result for “water solubility lower bound”: 6.97e-06 mole fraction (static equilibrium cell; water; 25 °C, 20 bar pressure).
`COc1cc(Nc2ncc3c(n2)-c2ccc(Cl)cc2C(c2c(F)cccc2OC)=NC3)ccc1C(=O)O`: “patients with adverse event” 4% (measured: Nausea, grade 2; cancer patients, phase 1/2; oral, dose not given, with: pembrolizumab).
Under “geometric mean ratio AUC(0-24)”, `Cc1nc(-c2ccc(OCC(C)C)c(C#N)c2)sc1C(=O)O` is recorded as 99.2 (human, plasma; oral, 20 mg, with: verinurad 2.5 mg; relative to: test over reference).
For `CCOC(=O)N1C[C@@H](c2ccc(C(C)(C)C)cc2)N[C@@H](c2ccc(F)c(C#N)c2)C1`, the solubility was < 4 µM (shake-flask, LC-HRMS; aqueous buffer; 16 h, pH 6.8).
The placental accumulation of `CCCC1CCC(c2ccc(-c3ccc(CC)cc3)cc2)CC1` (stereo not drawn) is reported as 375 ± 426 ng/g (rat, placenta; 5000 ng/mL in perfusate, high dose, mixture of 21 LCMs).
For `COc1ccc([C@@H](O)c2cc(-c3ncnc4cc(N5CCOCC5)ccc34)c(F)cc2Cl)nn1`, “lymphocyte count decrease TEAE” read 0% (locally advanced rectal cancer patients; 50 mg, with: capecitabine and radiotherapy).
With `N#Cc1ccc([C@H]2COC[C@@H](c3ccc(CN4CCOCC4)cc3)N2)cc1` the solubility was > 750 µM (shake-flask, LC-HRMS; aqueous buffer; 16 h, pH 6.8).
With `Cn1ncnc1[C@H]1c2n[nH]c(=O)c3cc(F)cc(c23)N[C@@H]1c1ccc(F)cc1` the AUCτ was 206 ng·h/mL (human patients, plasma; oral, 600 µg/m2 twice daily day 1, day 5, dose level DL5, median, with: temozolomide 40 mg/m2 daily days 2-6).
`C[C@H](CCC(=O)NCC(=O)O)[C@H]1CC[C@H]2[C@@H]3[C@H](O)C[C@@H]4C[C@H](O)CC[C@]4(C)[C@H]3C[C@H](O)[C@]12C` has a Cmin of 10.9 ± 1.5 nM (human, plasma; endogenous baseline diurnal).
`FC(F)(F)c1ccc(CNc2ccc(Cc3c[nH]c4ncc(Cl)cc34)cn2)cn1`: “patients with treatment-related adverse event” 72% (measured: hair colour changes; patients with TGCT; oral, 1000 mg/day, all grades).
`C[C@@H](N)c1cc(Cl)ccc1Cn1c(=S)[nH]c(=O)c2[nH]ccc21`: “subjects with nausea” 5% (human; oral, 2.5 mg single dose).
Under “mean deviation from nominal”, `Nc1ncn([C@H]2C[C@H](O)[C@@H](CO)O2)c(=O)n1` is recorded as 1.69% (processed mouse plasma; 1.2 ng/mL, 12 h, 4 °C, autosampler stability).
`C#C[C@]1(O)CC[C@H]2[C@@H]3CCC4=CC(=O)CC[C@@H]4[C@H]3CC[C@@]21CC` has a concentration decrease of ~5% (control baculosomes without CYP; 5 µM, 60 min, pH 7.4; relative to: non-incubated).
For `O=c1[nH]c(=O)n([C@H]2C[C@H](O)[C@@H](CO)O2)cc1CCCCC[18F]`, the biodistribution was 0.04 ± 0.01 %ID/g (male CD-1 nu/nu mice, RG2 tumour, brain; intravenous, dose not given, 2 h).
For `CCc1cc(C(=O)NC)c2nccc(N3CCc4c(cc(Cn5ccnc5)cc4-c4cn(C)nc4C(F)(F)F)C3=O)c2c1`, “change in clinical chemistry or haematology parameter” read 6.9% (measured: UREA; Sprague Dawley rat; oral, 50 mg/kg once daily, 7 days; relative to: vehicle).
`O=C(Nc1ccc(OC(F)(F)Cl)cc1)c1cnc(N2CC[C@@H](O)C2)c(-c2ccn[nH]2)c1` — result for “grade ≥2 event rate”: 0.6% (per treatment cycle, measured: ALT increase; human patients; oral, dose not given, 28 day cycle).
For `Cc1c(-c2ccc(N3CCc4cccc(C(=O)Nc5nc6ccccc6s5)c4C3)nc2C(=O)O)cnn1CC12CC3(C)CC(C)(C1)CC(OCCNCC[C@H](O)CO)(C3)C2`, “QRS duration change” read 1 ms (beagle dog, male, anaesthetised; intravenous infusion, 0.3 mg/kg/min, 30 min; relative to: vehicle).
The solubility of `Cc1nc(C)c(-c2ccnc(Nc3ccc(Cl)cc3)n2)s1` is reported as < 1.7 µg/mL (aqueous buffer; pH 7.4).
`NC[C@@]1(CC(=O)O)[C@@H]2CC[C@H]3C[C@@H]2[C@@H]1C3` — result for “elimination rate constant”: 0.197 h⁻¹ (human, normal renal function, plasma; oral, 20 mg single dose, geometric mean).
With `CC(=O)c1cccc(NC(=O)CSc2nnc(-c3cc4ccccc4cc3O)n2C)c1` the solubility was < 3.09 µg/mL (aqueous buffer; pH 7.4).
With `CC1(C)OC[C@@H](c2ccc3ccccc3c2)N[C@@H]1c1cccc(F)c1` the solubility was < 4 µM (shake-flask, LC-HRMS; aqueous buffer; 16 h, pH 6.8).
The tracer uptake of `N[C@@H](C[18F])C(=O)O` is reported as 1.03 ± 0.16 %ID/cc (PET imaging; female athymic nude mice, U-87 MG xenograft, tumor; intravenous, 60 min).
`CN1CCC[C@H](CN2c3ccccc3Sc3ccccc32)C1.Cl` gave an AUC(0-t) of 1340 ng·h/mL (ICR mouse female fasted, plasma; oral, 16 mg/kg).
For `CCOC(=O)N1C[C@@H](c2ccc(C(F)(F)F)cc2)N[C@@H](c2ccc(N3CCCC3)cc2)C1`, the solubility was < 4 µM (shake-flask, LC-HRMS; aqueous buffer; 16 h, pH 6.8).
`CC[C@H](C)[C@H](NC(=O)CN)C(=O)N[C@@H](CC(C)C)C(=O)N[C@@H](CC(=O)O)C(=O)N[C@@H](C)C(=O)N[C@H](C(=O)N[C@@H](CC(C)C)C(=O)N[C@@H](CC(=O)O)C(=O)N[C@@H](C)C(=O)N[C@H](C(=O)N[C@@H](CCCCN)C(=O)N[C@@H](C)C(=O)N[C@H](C(=O)N[C@@H](C)C(=O)N[C@@H](CCCCN)C(=O)N[C@@H](C)C(=O)N[C@H](C(=O)N[C@@H](CCCCN)C(=O)N[C@@H](C)C(=O)N[C@@H](CCCCN)C(=O)N[C@@H](C)C(=O)NCC(N)=O)[C@@H](C)CC)[C@@H](C)CC)[C@@H](C)CC)[C@@H](C)CC` has a helical content of 49% (circular dichroism; 10 mM SDS; 100 µM).
Under “urinary calcium excretion change”, `Cc1ccc([C@@H]2O[C@H](CO)[C@@H](O)[C@H](O)[C@H]2O)cc1Cc1ccc(-c2ccc(F)cc2)s1` is recorded as -20.2 mg (Japanese type 2 diabetes patients; 100 mg, day 3, 24 h urine collection; relative to: baseline).
For `NC1(C(=O)N[C@@H](CCO)c2ccc(Cl)cc2)CCN(c2nc[nH]c3nccc2-3)CC1`, “incidence of Vomiting” read 26.7% (metastatic CRPC patients; dose not given, any grade, treatment-related, all doses, with: enzalutamide 160 mg daily).
For `Cc1ccc(Sc2ccccc2N2CCNCC2)c(C)c1`, “participants with TEAE” read 0% (measured: postural dizziness; healthy adult men; oral, 20 mg daily, 12 days).
The Stokes shift of `CC1(C)C(/C=C/C2=C(Cl)C(=C/C=C3\N(CCCCCC(=O)O)c4ccccc4C3(C)C)/CCC2)=[N+](CCCCCC(=O)O)c2ccccc21` is reported as 20 nm (water).
`CCO[C@H]1CCN(Cc2c(OC)cc(C)c3[nH]ccc23)[C@H](c2ccc(C(=O)O)cc2)C1` — result for “unbound Cmax (median)”: 692 ng/mL (healthy human controls, plasma; oral, 200 mg single dose, hepatic impairment phase I study).
`CCOC(=O)N1C[C@@H](c2cccnc2)N[C@@H](c2cccnc2)C1` has a solubility of > 750 µM (shake-flask, LC-HRMS; aqueous buffer; 16 h, pH 6.8).
`CNCc1ccc(-c2[nH]c3cc(F)cc4c3c2CCNC4=O)cc1`: “patients with adverse event” 19.6% (measured: Headache; human patients; oral, dose not given, all grades, all doses).
`COc1cccc(OC)c1-c1cc(C(=O)NC2(C(=O)O)C3CC4CC(C3)CC2C4)nn1-c1ccc(C(=O)N(C)CCCN(C)CCCN(C)C(=O)CN2CCN(CC(=O)[O-])CCN(CC(=O)[O-])CCN(CC(=O)[O-])CC2)cc1C(C)C.[177Lu+3]` (stereo not drawn) gave a tissue uptake of 1.6 %ID/g (mouse, HT-29 xenograft, muscle; 4 h post injection).
`Cc1nc(-c2ccc(OCC(C)C)c(C#N)c2)sc1C(=O)O` gave a body weight of 25.5 g and 29.6 g and 28 g and 28.1 g and 27.8 g and 26.1 g (KM mouse, chronic hyperuricaemia model; dose not given, day 3).
Under “Irwin test score”, `O=C1NCCc2nc(OCc3cccc(F)c3)ccc21` is recorded as 0 (measured: Catalepsy; Sprague-Dawley rat, male; oral, 100 mg/kg, 1 h, score 0 none to 2 full; direction not given).
The AUC of `C=CC(=O)N(C)CCOc1c(N)ncnc1-c1cc(F)cc(NC(=O)c2ccc(C3CC3)cc2F)c1C` is reported as 44.9 ng·h/mL (human, whole blood; oral, 25 mg once daily, day 1).
